# Measurements of several laboratories.
# Cell line: CCRF-CEM
Structure (SMILES),observed,method,concentration,time,endpoint,result
CC/C=C\C/C=C\C/C=C\C/C=C\C/C=C\C/C=C\CCC(=O)Nc1ccn(C2OC(CO)C(O)C2(F)F)c(=O)n1 (stereo not drawn),cell growth or viability,SRB,,,GI50,50.7 nM
COc1cc(CNC(=O)C[C@H](C)CCC=C(C)C)ccc1OCc1cn(-c2ccccc2[N+](=O)[O-])nn1,,SRB,10 µM,48 h,growth,36.5%
O=c1ccn([C@@H]2O[C@H](CSSc3ccccn3)[C@@H](O)[C@H](F)[C@H]2O)c(=O)[nH]1,cell growth or viability,,,,IC50,9200 nM
COc1cc(CNC(=O)C[C@H](C)CCC=C(C)C)ccc1OCc1cn(-c2ccccc2)nn1,,SRB,10 µM,48 h,growth,59.4%
CCOc1ccccc1-c1nnc2n1N=C(c1ccc(NC3CCC3)cc1)CS2,cell migration,Transwell migration,,,EC50,200 nM
COc1cc(CNC(=O)C[C@H](C)CCC=C(C)C)ccc1O,,SRB,10 µM,48 h,growth,70.6%
CC(=C(c1ccc(O)cc1)c1ccc(Cl)cc1)c1ccc(Cl)cc1,cell growth or viability,,,,GI50,790 nM
COc1cc(CNC(=O)C[C@H](C)CCC=C(C)C)ccc1OCc1cn(-c2ccc([N+](=O)[O-])cc2)nn1,,SRB,10 µM,48 h,growth,81.1%
CCOc1ccccc1-c1nnc2n1N=C(c1ccc(N3CCCC3=O)cc1)CS2,cell migration,Transwell migration,,,EC50,220 nM
Nc1ccn([C@@H]2O[C@H](CSSc3ccccn3)[C@@H](O)[C@H](F)[C@H]2O)c(=O)n1,cell growth or viability,,,,IC50,> 500000 nM
CC(=O)OC[C@H]1O[C@@H](Sc2sc(C(=O)c3ccc(Br)cc3)c(N)c2-c2nc3ccccc3s2)[C@H](OC(C)=O)[C@@H](OC(C)=O)[C@@H]1OC(C)=O,,SRB,10 µM,48 h,growth,44.1%
COc1cc(CNC(=O)C[C@H](C)CCC=C(C)C)ccc1OCc1cn(-c2ccccc2Cl)nn1,,SRB,10 µM,48 h,growth,40.1%
CC(=O)OC[C@H]1O[C@@H](Sc2sc(C(=O)c3ccc(C)cc3)c(N)c2-c2nc3ccccc3s2)[C@H](OC(C)=O)[C@@H](OC(C)=O)[C@@H]1OC(C)=O,,SRB,10 µM,48 h,growth,60.5%
CC(Cc1ccc(Cl)cc1)=C(c1ccc(Cl)cc1)c1ccc(OCCN(C)C)cc1,cell growth or viability,,,,GI50,4170 nM
CCOc1ccccc1-c1nnc2n1N=C(c1ccc(N3CCCC3)cc1)CS2,cell migration,Transwell migration,,,EC50,400 nM
COc1cc(CNC(=O)C[C@H](C)CCC=C(C)C)ccc1OCc1cn(-c2ccc(Br)cc2)nn1,,SRB,10 µM,48 h,growth,61.1%
C(=C/c1ccccc1)/c1ccccc1,caspase-3 activity,flow cytometry,,24 h,EC50,> 50000 nM
COc1ccc(C2=Nn3c(NN=C4C(=O)N(Cc5ccccc5)c5ccc(Cl)cc54)nnc3SC2)cc1,cell growth or viability,SRB,10 µM,,inhibition,46%

# Excerpt of the above:
Structure (SMILES),observed,method,concentration,time,endpoint,result
CC(=O)OC[C@H]1O[C@@H](Sc2sc(C(=O)c3ccc(C)cc3)c(N)c2-c2nc3ccccc3s2)[C@H](OC(C)=O)[C@@H](OC(C)=O)[C@@H]1OC(C)=O,,SRB,10 µM,48 h,growth,60.5%
